Published values of several laboratories.
Every numbered part comes from another study and shows a few of its results, in no order.

Set 1 — technique: aptamer microarray, sandwich; molecule type: DNA with 2'F-ANA; medium: in vitro; tested at: 200 nM; together with: Cy3 exosite-II aptamer, 400 nM; reading: higher = stronger binding; sequence: GGTTGGTGTGGTTGG
Target: Prothrombin, mature alpha-thrombin (F2, Homo sapiens, UniProt P00734)
Notes: whole 15-mer aptamer, many near background
Modification	mean fluorescence intensity [a.u.]
2'F-ANA at 3 6 7 8 11 13 14	568
2'F-ANA at 2 9 10 12 14 15	87.1
2'F-ANA at 1 3 4 8 10 11 12 13	66.6
2'F-ANA at 6 7 11 14 15	173
2'F-ANA at 1 3 4 5 7 9 10 12 13 14 15	45.8
2'F-ANA at 3 6 8 10 13	468
2'F-ANA at 3 4 5 6 7 12 14 15	52.8
2'F-ANA at 2 6 8 9 10 12 14 15	80.3
2'F-ANA at 3 4 5 6 8 11 12 13	223
2'F-ANA at 1 2 3 7 8 10 13	62.4
2'F-ANA at 1 5 9 10 13 15	44.4
2'F-ANA at 1 2 3 5 9 11 12 13 14 15	96.3
2'F-ANA at 2 6 9 10 11 12 14	139
2'F-ANA at 3 4 7 9 10 11 13 15	248
2'F-ANA at 3 4 5 6 8 10 11 13	45.8
2'F-ANA at 2 7 9 10 12 14	213
2'F-ANA at 2 3 4 5 6 7 8 9 13 14 15	52.4

Set 2 — technique: protein-binding microarray; molecule type: double-stranded DNA, one strand shown; medium: in vitro; tested at: 940 nM top; notes: 60-bp whole probe; together with: salmon DNA 0.4 mg/ml; reference: random background probes; reading: higher = stronger binding; all sequences stand within: GCCTAGCAC … GTCTTGATTCGCTTGACGCTGCTG
Target: Interferon regulatory factor 5, full length, phosphomimetic (IRF5, Homo sapiens, UniProt Q13568-2, residues 1-514, S451D/S453D/S456D/S462D)
Sequence	fitted relative affinity [z-score]
GACGCTTTCGGGTTTCGGGACGTGCTA	4.3
GACGGTTCCCTTTTCCTCACGTGCTAG	0.649
TTAGGACTGGACTTTCGGTCAGTGCTA	2.06
TCATTTCTCTATTGCTTACTGTGCTAG	1.75
GACGGTATCGTTCTCGGGACGTGCTAG	4.46
TCATATTTTAATCACATACTGTGCTAG	0.765
TTAGATATCACTTTCGATTAGTGCTAG	4.83
GACGGTTCTGGTTTCGGGACGTGCTAG	4.33
GACGGTCTCCTACTGCTGATGTGCTAG	0.25
TCACCACTCTTTCCTCACACTGTGCTA	1.39
GACGGTATCGGGTATCGGCACGTGCTA	5.63
TCAGGTTTCACTTTAAAACTGTGCTAG	8.24
GAAGAAATTTAATAGTCACTGTGCTAG	-0.304
TCTAATCTCACTCTGTCCCTGTGCTAG	1.99
ATGGGTATGGCCTATTTATATGTGCTA	-0.122
TTCGATATCGGGACTGGATTAGTGCTA	0.159
TCATGTTTGATAATTTTACTGTGCTAG	0.167
TTAGGTCTCCGTATCCTTTAGTGCTAG	0.312
GTTTTTTTCTACTTCTCTTTGTGCTAG	2.13

Set 3 — technique: RNAcompete; molecule type: RNA; medium: in vitro; tested at: 20 nM; notes: 7-mer, probes averaged, single round; reference: mean of 7-mers; reading: higher = stronger binding
Target: PABPC1L2, full length, GST fusion (mouse, UniProt A0ABA7IW68)
Target sequence (chain): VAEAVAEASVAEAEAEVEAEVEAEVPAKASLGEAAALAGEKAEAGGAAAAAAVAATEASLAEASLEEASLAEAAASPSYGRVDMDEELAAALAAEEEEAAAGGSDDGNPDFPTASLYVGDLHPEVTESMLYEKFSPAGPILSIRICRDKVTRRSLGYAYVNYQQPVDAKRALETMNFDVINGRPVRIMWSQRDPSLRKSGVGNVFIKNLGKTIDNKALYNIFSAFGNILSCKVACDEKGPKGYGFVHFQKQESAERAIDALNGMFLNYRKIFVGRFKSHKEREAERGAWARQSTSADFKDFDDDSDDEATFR
Sequence	7-mer Z-score
GUCACCC	-0.306
AAGCGCG	0.137
CGGAAUC	-0.132
UAAGACG	0.0497
UUCUUCA	-0.369
CCUAACC	-0.345
GCCGAAU	-0.122
AUCGUUA	-0.255
CCUAUUC	-0.387
CCGAAGA	-0.0826
CCGGGGC	-0.0899
UCGGGGA	0.1
GGGUGUU	-0.0681
AAUCCCC	-0.358
ACCAGGU	-0.0754
AUCGCAC	-0.162

Set 4 — technique: universal PBM; molecule type: double-stranded DNA, one strand shown; medium: in vitro; tested at: 600 nM; reading: higher = stronger binding
Target: Sal-like protein 4, full length isoform A (SALL4, Homo sapiens, UniProt Q9UJQ4, residues 1-1053)
UniProt Q9UJQ4, sequence (whole entry, looked up): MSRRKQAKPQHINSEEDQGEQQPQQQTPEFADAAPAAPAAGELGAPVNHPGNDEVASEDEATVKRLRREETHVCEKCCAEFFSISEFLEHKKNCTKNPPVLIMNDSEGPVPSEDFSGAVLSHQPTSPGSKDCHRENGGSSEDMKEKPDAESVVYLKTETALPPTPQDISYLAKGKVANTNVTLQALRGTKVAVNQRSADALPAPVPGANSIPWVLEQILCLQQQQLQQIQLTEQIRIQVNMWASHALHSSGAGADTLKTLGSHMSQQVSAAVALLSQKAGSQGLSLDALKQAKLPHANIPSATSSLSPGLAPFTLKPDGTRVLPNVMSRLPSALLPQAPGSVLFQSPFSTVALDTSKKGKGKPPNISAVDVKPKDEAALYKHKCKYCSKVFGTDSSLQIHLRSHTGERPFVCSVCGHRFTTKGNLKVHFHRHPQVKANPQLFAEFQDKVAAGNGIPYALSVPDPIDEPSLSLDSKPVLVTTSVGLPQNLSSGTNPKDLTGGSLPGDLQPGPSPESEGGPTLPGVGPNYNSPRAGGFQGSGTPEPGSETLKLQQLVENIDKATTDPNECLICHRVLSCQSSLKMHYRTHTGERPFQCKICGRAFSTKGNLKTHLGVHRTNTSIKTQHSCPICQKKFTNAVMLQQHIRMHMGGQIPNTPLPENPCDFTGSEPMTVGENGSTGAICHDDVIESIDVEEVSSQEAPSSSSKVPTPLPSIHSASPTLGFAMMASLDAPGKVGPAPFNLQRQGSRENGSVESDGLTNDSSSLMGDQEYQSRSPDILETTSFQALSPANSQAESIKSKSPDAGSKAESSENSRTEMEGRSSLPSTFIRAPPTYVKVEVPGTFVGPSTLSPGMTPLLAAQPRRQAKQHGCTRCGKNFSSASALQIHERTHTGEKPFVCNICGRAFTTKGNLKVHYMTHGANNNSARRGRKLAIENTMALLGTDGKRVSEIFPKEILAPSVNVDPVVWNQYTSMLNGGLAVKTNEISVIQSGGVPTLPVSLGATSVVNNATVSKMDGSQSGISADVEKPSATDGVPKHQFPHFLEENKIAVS
Notes: 8-mer, flanks averaged, mean of replicates
Sequence	E-score
CGGTCTAC	-0.119
CCACCGAG	-0.322
CTGGGGAC	-0.362
AAGCAGAC	-0.188
TATTCGGA	0.106
CTGCGGTC	-0.336
CAAACGAC	0.0291
TTGCGAAA	0.104
GGTTGCCA	-0.195
GGTATCAC	-0.129
ACTTGAGG	-0.155
AACTTTCA	0.197
ACGAGCCC	-0.234
ACTATAAG	0.308
TGTCTTAA	0.203
ACGCTGAC	-0.182
GCGTATTA	0.213
CTGTTCTC	-0.0875
ACCGGAGC	-0.245
ATCGCACA	0.154
AGCACTTC	0.0571
AGCGCTCA	-0.227
ATCACAAG	0.145
CCTATTAC	0.189
AATTTACC	0.129

Set 5 — technique: protein binding microarray; molecule type: double-stranded DNA, one strand shown; medium: in vitro; tested at: not given; reference: not given; reading: higher = stronger binding
Target: Histone acetyltransferase KAT6A, winged helix 2, GST fusion (KAT6A, Homo sapiens, UniProt Q92794, residues 85-181)
Notes: 8-mer, flanks averaged, mean of 2 arrays, mostly near background
Target sequence (chain): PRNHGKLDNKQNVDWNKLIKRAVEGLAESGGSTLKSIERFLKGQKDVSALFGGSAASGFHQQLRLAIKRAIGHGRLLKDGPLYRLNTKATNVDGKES
Sequence	E-score
GGCTCATA	-0.151
CCGCGTAG	0.166
CGAGGTAC	0.0665
GTAAAGAA	0.0195
CCTCTACC	-0.122
GTATTGCA	-0.0921
ACATTTAG	-0.168
CCCCGGAC	0.112
AGTACGAG	-0.135
AACGCATA	0.0735
ACGATTTG	-0.0535
GGTCACAA	0.105
AGGACCGG	-0.0592
CAGGAGAA	0.0644
AGCGCGTG	-0.14
AATATCGG	0.0125
AATTACCA	-0.049
GGGGTGAC	0.0662

A few entries again (set 4):
Sequence	E-score
TGTCTTAA	0.203
ACGCTGAC	-0.182
GCGTATTA	0.213
CTGTTCTC	-0.0875
ACCGGAGC	-0.245
ATCGCACA	0.154
AGCACTTC	0.0571
AGCGCTCA	-0.227
ATCACAAG	0.145
